# Measured values collected from several papers.
# Compare with care: the assays were run in different laboratories. ± marks the error that the study gave.
# UGT1A1: UDP-glucuronosyltransferase 1A1 (UGT1A1, Homo sapiens, UniProt P22309)
# Chain of UniProt P22309 (whole entry, looked up): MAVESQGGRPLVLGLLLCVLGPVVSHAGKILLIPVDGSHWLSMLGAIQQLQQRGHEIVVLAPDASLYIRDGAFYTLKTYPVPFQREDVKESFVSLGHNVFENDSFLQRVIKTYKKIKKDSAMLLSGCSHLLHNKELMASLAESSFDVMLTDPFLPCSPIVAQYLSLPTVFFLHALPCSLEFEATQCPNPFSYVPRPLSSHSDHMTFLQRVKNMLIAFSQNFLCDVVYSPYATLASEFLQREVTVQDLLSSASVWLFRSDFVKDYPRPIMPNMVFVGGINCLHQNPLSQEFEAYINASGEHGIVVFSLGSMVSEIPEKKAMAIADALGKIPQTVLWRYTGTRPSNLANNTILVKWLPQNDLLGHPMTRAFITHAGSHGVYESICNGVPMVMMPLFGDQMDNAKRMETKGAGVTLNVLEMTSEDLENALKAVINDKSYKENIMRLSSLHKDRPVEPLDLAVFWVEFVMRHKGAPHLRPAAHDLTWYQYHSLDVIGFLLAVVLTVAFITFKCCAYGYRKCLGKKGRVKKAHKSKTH
# Sortilin: Sortilin (Homo sapiens, UniProt Q99523)
# Chain of UniProt Q99523 (whole entry, looked up): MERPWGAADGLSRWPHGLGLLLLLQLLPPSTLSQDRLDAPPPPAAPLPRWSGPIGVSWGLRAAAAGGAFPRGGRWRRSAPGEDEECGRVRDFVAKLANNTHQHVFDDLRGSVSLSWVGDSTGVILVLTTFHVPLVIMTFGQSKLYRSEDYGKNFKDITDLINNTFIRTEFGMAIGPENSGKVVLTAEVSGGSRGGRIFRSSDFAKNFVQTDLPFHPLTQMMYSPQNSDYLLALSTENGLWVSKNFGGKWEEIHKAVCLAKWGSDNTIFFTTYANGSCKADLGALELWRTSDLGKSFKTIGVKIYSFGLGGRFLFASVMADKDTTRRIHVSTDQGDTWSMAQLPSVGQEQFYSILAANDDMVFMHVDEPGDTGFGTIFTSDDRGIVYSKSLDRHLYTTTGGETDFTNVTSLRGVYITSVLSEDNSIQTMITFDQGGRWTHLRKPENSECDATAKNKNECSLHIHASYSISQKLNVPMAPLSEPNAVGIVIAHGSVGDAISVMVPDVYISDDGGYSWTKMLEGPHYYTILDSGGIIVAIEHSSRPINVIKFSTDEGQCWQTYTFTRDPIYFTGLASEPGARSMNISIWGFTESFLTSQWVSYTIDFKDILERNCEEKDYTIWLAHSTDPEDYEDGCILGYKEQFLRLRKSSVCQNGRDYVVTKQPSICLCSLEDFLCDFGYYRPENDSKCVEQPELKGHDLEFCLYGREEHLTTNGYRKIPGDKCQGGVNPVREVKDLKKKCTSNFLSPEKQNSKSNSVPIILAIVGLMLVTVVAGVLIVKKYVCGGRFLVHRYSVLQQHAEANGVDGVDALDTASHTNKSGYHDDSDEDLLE
# SULT1C4: Sulfotransferase 1C4 (SULT1C4, Homo sapiens, UniProt O75897)
# Chain of UniProt O75897 (whole entry, looked up): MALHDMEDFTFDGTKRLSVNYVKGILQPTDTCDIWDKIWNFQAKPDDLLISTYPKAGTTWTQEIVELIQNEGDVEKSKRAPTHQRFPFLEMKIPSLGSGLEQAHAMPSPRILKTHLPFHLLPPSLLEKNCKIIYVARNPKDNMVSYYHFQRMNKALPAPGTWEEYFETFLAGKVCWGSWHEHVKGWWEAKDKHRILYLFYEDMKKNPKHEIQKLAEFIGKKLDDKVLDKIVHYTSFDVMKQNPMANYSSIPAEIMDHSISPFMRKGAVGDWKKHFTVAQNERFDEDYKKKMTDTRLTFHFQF
# Chain of UniProt P08183 (whole entry, looked up): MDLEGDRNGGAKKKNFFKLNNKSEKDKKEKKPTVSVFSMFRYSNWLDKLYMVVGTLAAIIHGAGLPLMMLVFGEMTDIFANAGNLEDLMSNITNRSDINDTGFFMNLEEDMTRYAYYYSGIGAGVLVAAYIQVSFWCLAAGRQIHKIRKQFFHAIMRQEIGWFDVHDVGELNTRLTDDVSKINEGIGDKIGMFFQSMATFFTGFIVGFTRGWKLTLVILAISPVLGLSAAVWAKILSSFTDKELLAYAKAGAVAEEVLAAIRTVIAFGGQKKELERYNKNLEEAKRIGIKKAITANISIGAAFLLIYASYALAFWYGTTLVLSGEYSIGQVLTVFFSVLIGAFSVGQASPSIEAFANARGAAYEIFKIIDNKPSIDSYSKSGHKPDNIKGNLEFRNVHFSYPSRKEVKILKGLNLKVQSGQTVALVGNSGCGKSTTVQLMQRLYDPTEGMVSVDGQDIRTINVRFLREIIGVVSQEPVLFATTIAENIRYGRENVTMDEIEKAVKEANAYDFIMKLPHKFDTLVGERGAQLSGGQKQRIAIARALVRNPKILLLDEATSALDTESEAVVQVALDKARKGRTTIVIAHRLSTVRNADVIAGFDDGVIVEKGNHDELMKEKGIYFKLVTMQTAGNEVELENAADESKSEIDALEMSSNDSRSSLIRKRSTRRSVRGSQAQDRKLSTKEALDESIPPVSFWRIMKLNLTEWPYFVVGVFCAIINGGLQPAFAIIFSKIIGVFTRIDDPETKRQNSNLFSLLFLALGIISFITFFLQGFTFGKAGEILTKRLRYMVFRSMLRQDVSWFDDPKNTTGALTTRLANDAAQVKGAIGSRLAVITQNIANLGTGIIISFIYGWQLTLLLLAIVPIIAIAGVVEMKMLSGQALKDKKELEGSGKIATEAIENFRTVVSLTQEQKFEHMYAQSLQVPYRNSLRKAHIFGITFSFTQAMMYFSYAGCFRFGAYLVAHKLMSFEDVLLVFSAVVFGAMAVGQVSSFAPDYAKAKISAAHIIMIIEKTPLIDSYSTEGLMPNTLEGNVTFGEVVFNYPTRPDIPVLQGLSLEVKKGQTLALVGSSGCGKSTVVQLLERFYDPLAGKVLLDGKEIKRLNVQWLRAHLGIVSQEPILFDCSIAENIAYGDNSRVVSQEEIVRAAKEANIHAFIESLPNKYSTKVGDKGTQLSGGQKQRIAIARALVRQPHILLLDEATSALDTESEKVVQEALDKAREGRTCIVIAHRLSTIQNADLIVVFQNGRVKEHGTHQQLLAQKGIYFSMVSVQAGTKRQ
# Chain of UniProt Q12809 (whole entry, looked up): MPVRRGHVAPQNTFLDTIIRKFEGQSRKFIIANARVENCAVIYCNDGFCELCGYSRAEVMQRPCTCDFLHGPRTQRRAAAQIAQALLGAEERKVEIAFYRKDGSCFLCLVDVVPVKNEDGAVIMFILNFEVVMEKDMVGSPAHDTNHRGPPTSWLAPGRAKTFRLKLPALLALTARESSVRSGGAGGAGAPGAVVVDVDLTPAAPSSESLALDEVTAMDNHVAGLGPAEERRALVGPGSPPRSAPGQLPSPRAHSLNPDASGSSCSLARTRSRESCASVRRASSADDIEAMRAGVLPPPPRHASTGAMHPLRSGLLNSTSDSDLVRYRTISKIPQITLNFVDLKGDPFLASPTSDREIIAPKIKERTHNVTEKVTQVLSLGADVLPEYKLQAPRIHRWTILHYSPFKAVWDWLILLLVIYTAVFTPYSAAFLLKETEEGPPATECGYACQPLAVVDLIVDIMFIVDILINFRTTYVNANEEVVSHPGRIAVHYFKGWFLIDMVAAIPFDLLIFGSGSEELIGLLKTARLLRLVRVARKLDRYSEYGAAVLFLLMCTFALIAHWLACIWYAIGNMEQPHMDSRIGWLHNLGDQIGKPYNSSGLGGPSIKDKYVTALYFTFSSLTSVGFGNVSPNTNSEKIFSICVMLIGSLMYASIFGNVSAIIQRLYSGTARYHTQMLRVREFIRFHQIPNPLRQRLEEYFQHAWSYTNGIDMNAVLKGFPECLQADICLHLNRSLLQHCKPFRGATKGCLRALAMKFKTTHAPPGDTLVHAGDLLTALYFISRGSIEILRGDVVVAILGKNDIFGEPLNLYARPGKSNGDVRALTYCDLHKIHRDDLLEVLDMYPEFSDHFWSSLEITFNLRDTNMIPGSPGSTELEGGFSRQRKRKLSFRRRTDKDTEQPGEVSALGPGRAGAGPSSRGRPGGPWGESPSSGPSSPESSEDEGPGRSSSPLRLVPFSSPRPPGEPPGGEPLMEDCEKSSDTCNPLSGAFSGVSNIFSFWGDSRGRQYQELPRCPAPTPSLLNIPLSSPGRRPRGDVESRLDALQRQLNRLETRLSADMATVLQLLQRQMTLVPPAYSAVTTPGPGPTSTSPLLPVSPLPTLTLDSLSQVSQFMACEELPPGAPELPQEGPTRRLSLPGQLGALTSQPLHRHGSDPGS
# Chain of UniProt P02754 (whole entry, looked up): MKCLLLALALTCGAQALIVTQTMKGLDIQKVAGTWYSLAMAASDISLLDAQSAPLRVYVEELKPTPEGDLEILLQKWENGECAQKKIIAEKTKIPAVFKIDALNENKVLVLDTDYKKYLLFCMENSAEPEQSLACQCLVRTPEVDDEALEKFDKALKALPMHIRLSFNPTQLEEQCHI
# Chain of UniProt P50225 (whole entry, looked up): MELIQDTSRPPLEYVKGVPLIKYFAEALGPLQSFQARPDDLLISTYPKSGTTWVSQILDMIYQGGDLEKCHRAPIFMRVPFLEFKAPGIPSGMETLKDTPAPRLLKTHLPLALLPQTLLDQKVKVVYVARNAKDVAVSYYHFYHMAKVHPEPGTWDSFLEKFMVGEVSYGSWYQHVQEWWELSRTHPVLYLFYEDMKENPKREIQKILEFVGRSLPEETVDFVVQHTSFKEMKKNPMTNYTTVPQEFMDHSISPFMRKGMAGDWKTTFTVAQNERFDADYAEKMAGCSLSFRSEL
Structure (SMILES),target,assay,test system,conditions,scale,endpoint,value
CN(C)CCCN1c2ccccc2CCc2ccccc21,UGT1A1,"glucuronidation, inhibitor, LC-MS",recombinant human supersomes,"concentration not given, 70 min, pH 7.4, added: UGT1A1-specific substrate 20 µM",baseline: DMSO,inhibition,~40%
C=C1CN(S(=O)(=O)c2ccc(C)cc2)CCCN(CCc2ccccc2)CCCN(S(=O)(=O)c2ccc(C)cc2)C1.Cl,Sortilin,,HEK-293T,,baseline: CC50 over IC50,selectivity index,> 50
CC(C)=CCc1cc2c(cc1O)O[C@H](c1ccc(O)cc1)CC2=O,UGT1A1,"glucuronidation, substrate",recombinant enzyme,pH 7.4,,CLint,697 µL/min/mg
C[C@]12C[C@H](O)[C@H]3[C@@H](CCC4=CC(=O)CC[C@@]43C)[C@@H]1CC[C@@H]2C(=O)CO,"Cytochrome P450 11B2, mitochondrial (CYP11B2, Homo sapiens, UniProt P19099)",substrate,,"100 µM, phospholipid vesicles",,18-hydroxylation coupling efficiency,35 ± 4.8%
CC[C@H]1[C@@H](O)[C@@H]2[C@H](CC[C@]3(C)[C@@H]([C@H](C)CCNC(=O)NS(=O)(=O)c4ccc(C(C)(C)C)cc4)CC[C@@H]23)[C@@]2(C)CC[C@@H](O)C[C@@H]12,"ATP-dependent translocase ABCB1 (ABCB1, Homo sapiens, UniProt P08183)",,"human, plasma","dose not given, geometric mean, alone",,Vd/F,216 L
COc1cc2c(CCNC(C)=O)c[nH]c2cc1O,SULT1C4,"substrate, sulfation, purified enzyme",,"10 µM, 10 min, pH 7.0, 37 °C",,specific activity,3.94 ± 0.07 nmol/min/mg
CC(C)=CCC/C(C)=C/C=C/C(C)=C/C=C/C(C)=C/C=C/C=C(C)/C=C/C=C(C)/C=C/C=C(\C)CCC=C(C)C,"Beta-lactoglobulin (LGB, Bos taurus, UniProt P02754)",,protein-carotenoid complex,298 K,,zeta potential,-9.5 ± 0.36 mV
Cc1oc2ccccc2c1Cc1cc(I)c(OCC(=O)O)c(I)c1,"Voltage-gated inwardly rectifying potassium channel KCNH2 (KCNH2, Homo sapiens, UniProt Q12809)","ion current, whole-cell patch clamp",HEK293 expressing hERG1,"10 µM, K+ 10 mM, at +40 mV before repolarization",,outward current block,23 ± 5%
CCC(=O)NCC[C@@H]1CCc2cc(O)c3c(c21)CCO3,"Sulfotransferase 1A1 (SULT1A1, Homo sapiens, UniProt P50225)","substrate, sulfation, purified enzyme",,"10 µM, 10 min, pH 7.0, 37 °C",,specific activity,2.82 ± 0.02 nmol/min/mg
C=C1CN(S(=O)(=O)c2ccc(C)cc2)CCCN(Cc2ccccc2)CCCN(S(=O)(=O)c2ccc(C)cc2)C1.Cl,Sortilin,,HEK-293T,,baseline: CC50 over IC50,selectivity index,> 23
CC(=O)NCCc1c[nH]c2ccc(O)cc12,SULT1C4,"substrate, sulfation, purified enzyme",,"10 µM, 10 min, pH 7.0, 37 °C",,specific activity,5.87 ± 0.22 nmol/min/mg
Cc1cc(Nc2ncnc3ccc(NC4=NC(C)(CO)CO4)cc23)ccc1Oc1ccn2ncnc2c1 (stereo not drawn),"Cytochrome P450 3A4 (CYP3A4, Homo sapiens, UniProt P08684)",,"human, plasma","oral, 300 mg tucatinib single dose, day 1, tucatinib alone",,Cmax (geometric mean),61.7 ng/mL

# A few entries again:
Structure (SMILES),target,assay,test system,conditions,scale,endpoint,value
COc1cc2c(CCNC(C)=O)c[nH]c2cc1O,SULT1C4,"substrate, sulfation, purified enzyme",,"10 µM, 10 min, pH 7.0, 37 °C",,specific activity,3.94 ± 0.07 nmol/min/mg
CC(C)=CCc1cc2c(cc1O)O[C@H](c1ccc(O)cc1)CC2=O,UGT1A1,"glucuronidation, substrate",recombinant enzyme,pH 7.4,,CLint,697 µL/min/mg
